Measured values of several laboratories.
Compare with care: the assays were run in different laboratories.
Target: Serine/threonine-protein kinase Nek4 (NEK4, Homo sapiens, UniProt P51957)
Chain of UniProt P51957 (whole entry, looked up): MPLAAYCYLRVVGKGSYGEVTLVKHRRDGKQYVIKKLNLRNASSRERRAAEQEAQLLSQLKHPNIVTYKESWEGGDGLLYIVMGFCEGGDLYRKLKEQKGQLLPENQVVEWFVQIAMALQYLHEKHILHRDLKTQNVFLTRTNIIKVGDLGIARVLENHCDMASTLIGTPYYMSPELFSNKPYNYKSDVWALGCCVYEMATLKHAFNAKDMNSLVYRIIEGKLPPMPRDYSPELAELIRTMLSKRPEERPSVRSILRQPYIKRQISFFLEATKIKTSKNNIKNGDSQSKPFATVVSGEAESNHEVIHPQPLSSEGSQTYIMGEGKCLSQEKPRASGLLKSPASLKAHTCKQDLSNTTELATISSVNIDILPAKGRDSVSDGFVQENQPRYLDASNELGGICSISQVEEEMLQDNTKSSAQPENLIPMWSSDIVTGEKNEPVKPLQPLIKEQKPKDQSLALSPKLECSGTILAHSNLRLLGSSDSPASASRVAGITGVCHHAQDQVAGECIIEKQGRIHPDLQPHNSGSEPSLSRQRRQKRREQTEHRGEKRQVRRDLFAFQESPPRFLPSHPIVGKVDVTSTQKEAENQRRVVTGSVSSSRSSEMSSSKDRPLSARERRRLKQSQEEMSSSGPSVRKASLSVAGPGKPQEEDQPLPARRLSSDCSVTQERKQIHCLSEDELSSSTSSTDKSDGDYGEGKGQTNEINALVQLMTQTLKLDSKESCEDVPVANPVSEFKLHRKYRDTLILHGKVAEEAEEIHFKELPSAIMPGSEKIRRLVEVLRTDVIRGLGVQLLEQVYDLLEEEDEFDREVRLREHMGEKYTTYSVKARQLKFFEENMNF

SMILES | assay | system | setting | how to read | endpoint | value
C=CC(=O)N1CCCC(n2c(=O)c3ncccc3n(Cc3ccc(Oc4ccccc4)cc3)c2=O)C1 (stereo not drawn) | cell-free assay, competition with immobilised ligand | – | 1 µM | – | remaining binding | 87%
CS(=O)(=O)Nc1cccc(-c2csc3cnc(Nc4ccc(N5CCN(CCCCCOc6cccc7c6C(=O)N(C6CCC(=O)NC6=O)C7=O)CC5)cc4)nc23)c1 (stereo not drawn) | probe labelling, inhibitor, KiNativ chemoproteomics | MOLT-4 | 1 µM | – | inhibition | 6.75%
CCn1cc(C(=O)O)c(=O)c2c(N)c(F)c(NC3CCCCC3)cc21 | kinase activity | – | 0.1 µM, with: ATP at Km | – | inhibition | -6.6%
NC(=O)C[C@H]1CCc2sc3ncnc(O[C@H]4CC[C@H](N5CCOCC5)CC4)c3c21 | enzyme activity, inhibitor | – | 10 µM | – | inhibition | 3%
Nc1ncc(-c2cc(-c3cnn(CC(F)(F)F)c3)ncc2F)nc1C(=O)NC1CNCC(F)C1 (stereo not drawn) | enzyme activity | – | 1 µM | baseline: DMSO control | remaining activity | 104%
CC(C)=CC1OC(C)(C)C2C=C3C(=O)C(Cl)=CC(O)C3C3C(O)C4OC4C(=O)C132 (stereo not drawn) | cell-free assay, competition with immobilised ligand | – | 10 µM | – | remaining binding | 99%
COc1cc(Nc2nccc(-c3cnn4nc(OC)ccc34)n2)cc(C(F)(F)F)c1 | binding, competition with immobilised ligand | – | 1 µM | – | remaining binding | 92%
CNC(=O)C[C@H](Cc1ccc(C#N)cc1)NC(=O)c1cc(-c2ccc(CN[C@H](C)c3ccc(C)cc3)o2)ccc1Cl | enzyme activity, inhibitor | – | 1 µM | – | activity vs control | 116%
C=CC(=O)N1CCc2ccc(-n3c(=O)ccc4cnc5ccc(-c6cnn(C)c6)cc5c43)cc21 | KINOMEscan | – | 1 µM | baseline: DMSO control | remaining binding | 100%
CNC(=O)C1CCN(c2cc(C)c(F)cc2NC(=O)c2ccc(-c3cc(O)ccc3C)c(C)c2)CC1 | binding, competition with immobilised ligand | – | 1 µM | – | remaining binding | 92%
CCN1CCN(Cc2ccc(C(=O)Nc3ccc(C)c(NCc4cnc5[nH]ccc5c4OC)c3)cc2C(F)(F)F)CC1 | binding, competition with immobilised ligand | – | 1 µM | – | remaining binding | 43%
CN1CC[C@@H](COc2cnc(C#N)cc2-c2ccn3nc(NC(=O)C4CC4)cc3c2)C1 | enzyme activity, inhibitor | – | 1 µM | – | inhibition | 2%

Repeated from above:
SMILES | assay | system | setting | how to read | endpoint | value
C=CC(=O)N1CCCC(n2c(=O)c3ncccc3n(Cc3ccc(Oc4ccccc4)cc3)c2=O)C1 (stereo not drawn) | cell-free assay, competition with immobilised ligand | – | 1 µM | – | remaining binding | 87%
